Measurements of several laboratories.
Numbered parts are unrelated; each lists some results of a single study. Values joined by “and” are separate records of one study, mostly repeats; a detail may differ.
Sequence of UniProt P10721 (whole entry, unmodified, looked up): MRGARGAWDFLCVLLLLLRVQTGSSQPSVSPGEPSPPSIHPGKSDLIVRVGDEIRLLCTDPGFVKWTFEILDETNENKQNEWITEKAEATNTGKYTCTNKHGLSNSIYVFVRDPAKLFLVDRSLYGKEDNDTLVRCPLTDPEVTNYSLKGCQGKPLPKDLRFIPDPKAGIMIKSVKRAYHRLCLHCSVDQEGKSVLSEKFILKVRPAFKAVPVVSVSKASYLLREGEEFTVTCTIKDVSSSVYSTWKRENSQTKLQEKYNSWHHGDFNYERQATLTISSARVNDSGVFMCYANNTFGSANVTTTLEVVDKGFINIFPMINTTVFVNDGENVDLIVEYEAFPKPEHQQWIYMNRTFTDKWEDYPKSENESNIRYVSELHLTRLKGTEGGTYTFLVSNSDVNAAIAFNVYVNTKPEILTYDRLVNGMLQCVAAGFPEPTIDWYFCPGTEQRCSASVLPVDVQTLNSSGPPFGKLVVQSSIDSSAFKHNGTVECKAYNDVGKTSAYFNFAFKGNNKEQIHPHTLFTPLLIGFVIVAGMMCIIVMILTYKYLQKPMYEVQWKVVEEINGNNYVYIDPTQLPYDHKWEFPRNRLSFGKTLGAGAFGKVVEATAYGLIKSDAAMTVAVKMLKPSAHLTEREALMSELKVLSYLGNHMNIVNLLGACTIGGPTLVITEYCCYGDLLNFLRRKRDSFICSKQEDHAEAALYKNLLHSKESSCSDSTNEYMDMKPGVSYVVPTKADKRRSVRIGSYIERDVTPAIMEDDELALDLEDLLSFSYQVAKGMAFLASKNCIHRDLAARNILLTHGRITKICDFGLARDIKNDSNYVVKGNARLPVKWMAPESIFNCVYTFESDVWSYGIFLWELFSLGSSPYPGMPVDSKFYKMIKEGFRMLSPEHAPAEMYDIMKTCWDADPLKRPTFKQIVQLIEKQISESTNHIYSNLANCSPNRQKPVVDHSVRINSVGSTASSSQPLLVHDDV
Sequence of UniProt Q8NE63 (whole entry, looked up): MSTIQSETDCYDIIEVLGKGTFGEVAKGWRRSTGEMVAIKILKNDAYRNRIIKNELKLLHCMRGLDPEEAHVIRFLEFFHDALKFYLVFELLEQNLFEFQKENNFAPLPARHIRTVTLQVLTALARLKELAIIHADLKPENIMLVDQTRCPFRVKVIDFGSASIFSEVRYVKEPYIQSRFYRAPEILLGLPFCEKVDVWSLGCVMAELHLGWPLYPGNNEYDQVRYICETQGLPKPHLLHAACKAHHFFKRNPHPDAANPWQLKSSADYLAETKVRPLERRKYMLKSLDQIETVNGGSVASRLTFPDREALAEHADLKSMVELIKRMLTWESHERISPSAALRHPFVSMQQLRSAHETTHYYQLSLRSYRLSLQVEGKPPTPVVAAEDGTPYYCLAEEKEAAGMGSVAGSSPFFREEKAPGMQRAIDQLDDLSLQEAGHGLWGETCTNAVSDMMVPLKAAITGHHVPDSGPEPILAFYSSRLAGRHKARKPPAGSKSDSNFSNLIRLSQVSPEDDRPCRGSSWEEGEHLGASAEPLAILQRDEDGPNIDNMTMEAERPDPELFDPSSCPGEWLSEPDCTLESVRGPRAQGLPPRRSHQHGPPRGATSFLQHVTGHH
Sequence of UniProt Q96Q40 (whole entry, looked up): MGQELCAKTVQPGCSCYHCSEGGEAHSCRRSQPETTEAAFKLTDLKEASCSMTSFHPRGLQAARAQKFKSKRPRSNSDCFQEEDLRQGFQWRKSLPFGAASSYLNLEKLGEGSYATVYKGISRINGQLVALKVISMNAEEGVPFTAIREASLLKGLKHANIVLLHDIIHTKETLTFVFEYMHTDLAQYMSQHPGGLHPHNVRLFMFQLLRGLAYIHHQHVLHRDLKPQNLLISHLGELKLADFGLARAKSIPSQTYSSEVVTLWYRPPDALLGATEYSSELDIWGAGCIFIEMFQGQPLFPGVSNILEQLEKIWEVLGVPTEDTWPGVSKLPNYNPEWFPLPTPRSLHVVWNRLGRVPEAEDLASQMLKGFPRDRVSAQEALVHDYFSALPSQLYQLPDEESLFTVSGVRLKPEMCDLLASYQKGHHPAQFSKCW
Sequence of UniProt Q9H093 (whole entry, looked up): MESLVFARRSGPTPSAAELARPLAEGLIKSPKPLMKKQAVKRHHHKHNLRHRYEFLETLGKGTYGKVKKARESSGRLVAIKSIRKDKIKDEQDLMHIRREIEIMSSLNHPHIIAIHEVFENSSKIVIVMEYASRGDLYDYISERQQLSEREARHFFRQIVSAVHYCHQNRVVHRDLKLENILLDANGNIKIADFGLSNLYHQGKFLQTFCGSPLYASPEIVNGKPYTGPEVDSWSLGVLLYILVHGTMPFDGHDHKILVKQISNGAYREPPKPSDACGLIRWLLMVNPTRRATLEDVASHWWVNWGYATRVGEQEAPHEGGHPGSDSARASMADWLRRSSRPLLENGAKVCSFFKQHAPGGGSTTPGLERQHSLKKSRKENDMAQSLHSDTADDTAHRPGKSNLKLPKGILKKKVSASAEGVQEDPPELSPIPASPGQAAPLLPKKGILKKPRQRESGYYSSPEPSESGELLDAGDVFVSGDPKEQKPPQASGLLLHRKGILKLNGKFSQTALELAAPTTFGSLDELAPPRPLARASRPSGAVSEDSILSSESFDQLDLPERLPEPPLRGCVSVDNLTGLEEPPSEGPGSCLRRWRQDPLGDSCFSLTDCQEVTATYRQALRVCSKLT
Sequence of UniProt Q9P286 (whole entry, looked up): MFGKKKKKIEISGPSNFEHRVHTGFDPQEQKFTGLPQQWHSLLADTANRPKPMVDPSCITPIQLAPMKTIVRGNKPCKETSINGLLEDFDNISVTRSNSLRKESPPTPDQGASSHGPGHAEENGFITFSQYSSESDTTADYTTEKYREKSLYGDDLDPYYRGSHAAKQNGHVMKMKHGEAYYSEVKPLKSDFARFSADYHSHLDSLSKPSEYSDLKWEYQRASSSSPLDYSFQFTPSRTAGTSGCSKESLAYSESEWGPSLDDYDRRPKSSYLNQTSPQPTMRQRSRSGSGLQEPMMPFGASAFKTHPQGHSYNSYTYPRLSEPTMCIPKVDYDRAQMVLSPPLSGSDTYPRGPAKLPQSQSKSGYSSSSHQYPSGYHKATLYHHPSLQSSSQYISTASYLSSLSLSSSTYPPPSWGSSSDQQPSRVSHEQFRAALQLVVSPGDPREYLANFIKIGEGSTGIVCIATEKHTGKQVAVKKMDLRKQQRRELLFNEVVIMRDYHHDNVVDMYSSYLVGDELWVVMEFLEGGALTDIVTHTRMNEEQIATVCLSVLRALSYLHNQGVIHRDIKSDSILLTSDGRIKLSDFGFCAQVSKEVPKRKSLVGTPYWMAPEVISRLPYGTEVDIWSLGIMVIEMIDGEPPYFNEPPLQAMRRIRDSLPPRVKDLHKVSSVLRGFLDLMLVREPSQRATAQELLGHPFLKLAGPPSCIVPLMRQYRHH

Set 1
SMILES: CC[C@@]1(c2cccc(-c3c(F)cncc3OC)c2)C2=C(Nc3n[nH]cc31)[C@H](F)C(C)(C)CC2=O (single isomer, unassigned)
Concentration: 1 µM
target	assay	scale	remaining binding
Cyclin-dependent kinase 16 (CDK16, Homo sapiens, UniProt Q00536)	kinase binding, KINOMEscan	relative to: DMSO control	5.6%
Serine/threonine-protein kinase 32A (STK32A, Homo sapiens, UniProt Q8WU08)	kinase binding, KINOMEscan	relative to: DMSO control	81%
Proto-oncogene tyrosine-protein kinase receptor Ret (RET, Homo sapiens, UniProt P07949, V804L)	kinase binding, KINOMEscan	relative to: DMSO control	88%
NUAK family SNF1-like kinase 2 (NUAK2, Homo sapiens, UniProt Q9H093)	kinase binding, KINOMEscan	relative to: DMSO control	66%
Serine/threonine-protein kinase Chk2 (CHEK2, Homo sapiens, UniProt O96017)	kinase binding, KINOMEscan	relative to: DMSO control	88%
Mitogen-activated protein kinase kinase kinase kinase 2 (MAP4K2, Homo sapiens, UniProt Q12851)	binding, competition with immobilised ligand		72%
Serine/threonine-protein kinase Nek5 (NEK5, Homo sapiens, UniProt Q6P3R8)	binding, competition with immobilised ligand		100%
Phosphatidylinositol 4,5-bisphosphate 3-kinase catalytic subunit alpha isoform (PIK3CA, Homo sapiens, UniProt P42336, I800L)	binding, competition with immobilised ligand		61%
Mitogen-activated protein kinase kinase kinase 13 (MAP3K13, Homo sapiens, UniProt O43283)	binding, competition with immobilised ligand		70%
Cyclin-dependent kinase 7 (CDK7, Homo sapiens, UniProt P50613)	binding, competition with immobilised ligand		86%
Serine/threonine-protein kinase PAK 5 (PAK5, Homo sapiens, UniProt Q9P286)	kinase binding, KINOMEscan	relative to: DMSO control	96%
Macrophage-stimulating protein receptor (MST1R, Homo sapiens, UniProt Q04912)	binding, competition with immobilised ligand		99%
Mast/stem cell growth factor receptor Kit (KIT, Homo sapiens, UniProt P10721, T670I/V559D)	binding, competition with immobilised ligand		100%
RAC-gamma serine/threonine-protein kinase (AKT3, Homo sapiens, UniProt Q9Y243)	kinase binding, KINOMEscan	relative to: DMSO control	99%
Beta-adrenergic receptor kinase 1 (GRK2, Homo sapiens, UniProt P25098)	binding, competition with immobilised ligand		54%
Homeodomain-interacting protein kinase 4 (HIPK4, Homo sapiens, UniProt Q8NE63)	binding, competition with immobilised ligand		74%
Phosphatidylinositol 5-phosphate 4-kinase type-2 gamma (PIP4K2C, Homo sapiens, UniProt Q8TBX8)	binding, competition with immobilised ligand		100%

Set 2
Structure (SMILES): O=C(O)C1Oc2cc(F)ccc2N(Cc2ccccc2)C1=O (stereo not shown)
Organism: Arabidopsis thaliana
Strain: Col-0
conditions	hypocotyl length
50 µg/mL, seed germination, single repetition	1.78 cm and 1.82 cm and 1.83 cm and 1.79 cm
12.5 µg/mL, seed germination, repetition mean	2.1 cm
12.5 µg/mL, seed germination, single repetition	2.09 cm and 2.1 cm and 2 cm and 2.11 cm and 2.16 cm
6.25 µg/mL, seed germination, repetition mean	2.3 cm
50 µg/mL, seed germination, repetition mean	1.83 cm
3.125 µg/mL, seed germination, repetition mean	2.33 cm
6.25 µg/mL, seed germination, single repetition	2.29 cm and 2.3 cm and 2.32 cm and 2.34 cm
3.125 µg/mL, seed germination, single repetition	2.31 cm and 2.29 cm and 2.34 cm and 2.33 cm and 2.3 cm
25 µg/mL, seed germination, repetition mean	2.06 cm

Set 3
SMILES: O=C(Nc1ccccc1)Nc1cccc(Oc2ccc3nccn3n2)c1
Concentration: 1 µM
target	assay	remaining binding
Cyclin-dependent kinase 15 (CDK15, Homo sapiens, UniProt Q96Q40)	binding, competition with immobilised ligand	43%
Dual specificity tyrosine-phosphorylation-regulated kinase 1A (DYRK1A, Homo sapiens, UniProt Q13627)	binding	100%
Serine/threonine-protein kinase STK11 (STK11, Homo sapiens, UniProt Q15831)	cell-free binding	76%
NUAK family SNF1-like kinase 2 (NUAK2, Homo sapiens, UniProt Q9H093)	binding	100%
Phosphatidylinositol 4,5-bisphosphate 3-kinase catalytic subunit delta isoform (PIK3CD, Homo sapiens, UniProt O00329)	binding	86%
Calcium/calmodulin-dependent protein kinase type II subunit delta (CAMK2D, Homo sapiens, UniProt Q13557)	binding	100%
STE20/SPS1-related proline-alanine-rich protein kinase (STK39, Homo sapiens, UniProt Q9UEW8)	binding	100%
Dual specificity mitogen-activated protein kinase kinase 2 (MAP2K2, Homo sapiens, UniProt P36507)	binding, competition with immobilised ligand	100%
Mitogen-activated protein kinase kinase kinase 3 (MAP3K3, Homo sapiens, UniProt Q99759)	binding, competition with immobilised ligand	100%
Cyclin-dependent kinase-like 2 (CDKL2, Homo sapiens, UniProt Q92772)	binding, competition with immobilised ligand	96%
Serine/threonine-protein kinase PAK 5 (PAK5, Homo sapiens, UniProt Q9P286)	binding	71%
Cyclin-dependent kinase 2 homolog (CRK2, Plasmodium falciparum, UniProt P61075)	binding	77%
Homeodomain-interacting protein kinase 4 (HIPK4, Homo sapiens, UniProt Q8NE63)	cell-free binding	91%
Testis-specific serine/threonine-protein kinase 3 (TSSK3, Homo sapiens, UniProt Q96PN8)	binding	100%
Tyrosine-protein kinase Tec (TEC, Homo sapiens, UniProt P42680)	binding, competition with immobilised ligand	100%
Macrophage-stimulating protein receptor (MST1R, Homo sapiens, UniProt Q04912)	binding	100%
Mast/stem cell growth factor receptor Kit (KIT, Homo sapiens, UniProt P10721, V559D/V654A)	binding	18%

Set 4
Structure (SMILES): C[C@@H]1CN(c2ccc(-c3cc(C(=O)NCCOCCOCCOCCOCCNC(=O)Cn4cc(-c5[nH]cc(C(=O)N[C@@H](CC(N)=O)c6ccc(F)c(Cl)c6)c5-c5ccc(Cl)cc5F)cn4)ccc3F)cc2NC(=O)c2c[nH]c(=O)cc2C(F)(F)F)C[C@H](C)N1C
Read-out: thermal unfolding
Method: differential scanning fluorimetry
Concentration: 5.5 µM
Direction: higher = more unfolded
DCAF1: DDB1- and CUL4-associated factor 1 (DCAF1, Homo sapiens, UniProt Q9Y4B6)
Sequence of UniProt Q9Y4B6 (whole entry, looked up): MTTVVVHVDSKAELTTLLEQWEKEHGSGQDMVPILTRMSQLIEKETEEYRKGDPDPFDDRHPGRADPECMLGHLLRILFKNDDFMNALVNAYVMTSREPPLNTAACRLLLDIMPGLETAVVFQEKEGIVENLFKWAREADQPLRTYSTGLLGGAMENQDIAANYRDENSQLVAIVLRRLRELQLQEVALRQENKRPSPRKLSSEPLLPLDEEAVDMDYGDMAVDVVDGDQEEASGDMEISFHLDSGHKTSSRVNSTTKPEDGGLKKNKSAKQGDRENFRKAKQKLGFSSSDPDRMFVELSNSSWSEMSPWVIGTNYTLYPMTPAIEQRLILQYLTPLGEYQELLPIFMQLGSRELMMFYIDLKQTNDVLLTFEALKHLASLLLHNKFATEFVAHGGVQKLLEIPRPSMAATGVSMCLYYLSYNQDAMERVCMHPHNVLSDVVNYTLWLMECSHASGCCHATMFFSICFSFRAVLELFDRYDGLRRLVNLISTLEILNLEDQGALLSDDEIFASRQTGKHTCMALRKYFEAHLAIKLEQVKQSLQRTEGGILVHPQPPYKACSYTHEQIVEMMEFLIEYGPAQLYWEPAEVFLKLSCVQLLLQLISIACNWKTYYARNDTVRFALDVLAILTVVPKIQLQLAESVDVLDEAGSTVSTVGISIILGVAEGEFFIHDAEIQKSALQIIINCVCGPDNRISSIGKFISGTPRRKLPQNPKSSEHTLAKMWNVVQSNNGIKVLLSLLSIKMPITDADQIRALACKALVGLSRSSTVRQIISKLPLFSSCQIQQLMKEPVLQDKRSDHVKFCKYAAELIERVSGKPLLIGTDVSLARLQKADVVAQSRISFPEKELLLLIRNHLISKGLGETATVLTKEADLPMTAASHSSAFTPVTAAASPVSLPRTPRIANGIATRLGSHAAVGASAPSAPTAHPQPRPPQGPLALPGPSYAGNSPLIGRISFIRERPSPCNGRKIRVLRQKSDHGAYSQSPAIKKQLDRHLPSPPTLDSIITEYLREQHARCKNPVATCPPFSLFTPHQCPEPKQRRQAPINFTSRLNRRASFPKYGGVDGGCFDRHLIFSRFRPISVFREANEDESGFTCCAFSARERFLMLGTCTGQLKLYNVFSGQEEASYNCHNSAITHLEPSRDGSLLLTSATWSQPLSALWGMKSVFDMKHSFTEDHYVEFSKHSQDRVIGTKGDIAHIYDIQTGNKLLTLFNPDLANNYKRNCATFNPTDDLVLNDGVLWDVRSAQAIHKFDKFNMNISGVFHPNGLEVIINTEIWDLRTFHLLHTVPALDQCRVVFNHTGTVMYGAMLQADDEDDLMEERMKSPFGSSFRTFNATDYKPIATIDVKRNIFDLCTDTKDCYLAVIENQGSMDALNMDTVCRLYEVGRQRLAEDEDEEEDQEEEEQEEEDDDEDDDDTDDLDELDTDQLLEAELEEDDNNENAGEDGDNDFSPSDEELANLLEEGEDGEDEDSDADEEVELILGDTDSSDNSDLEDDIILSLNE
WDR5: WD repeat-containing protein 5 (WDR5, Homo sapiens, UniProt P61964)
target	conditions	SYPRO Orange fluorescence [a.u.]
DCAF1	55.01 °C	19500
WDR5	90.41 °C	42900
DCAF1	34 °C	8570
WDR5	60.81 °C	9940
WDR5	83.41 °C	34900
WDR5	36 °C	14200
DCAF1	42.4 °C	11100
DCAF1	43.4 °C	11600
WDR5	78.01 °C	17300
WDR5	67.61 °C	6970
DCAF1	52.61 °C	16300

Set 5
Compound: COc1cc(-c2nc3ccc(C(=O)NCCCN(C)C)cc3n2C2CCC2)cc(OC)c1OC
Read-out: binding
Method: competition with immobilised ligand
Concentration: 1 µM
target	remaining binding
Macrophage colony-stimulating factor 1 receptor, autoinhibited (CSF1R, Homo sapiens, UniProt P07333)	98%
Phosphatidylinositol 4,5-bisphosphate 3-kinase catalytic subunit alpha isoform (PIK3CA, Homo sapiens, UniProt P42336, Q546K)	72%
Vascular endothelial growth factor receptor 3 (FLT4, Homo sapiens, UniProt P35916)	100%
Serine/threonine-protein kinase Nek11 (NEK11, Homo sapiens, UniProt Q8NG66)	91%
Tyrosine-protein kinase ABL1, phosphorylated (ABL1, Homo sapiens, UniProt P00519, Y253F)	67%
Mast/stem cell growth factor receptor Kit (KIT, Homo sapiens, UniProt P10721, D816V)	87%
Serine/threonine-protein kinase RIO1 (RIOK1, Homo sapiens, UniProt Q9BRS2)	67%
SNF-related serine/threonine-protein kinase (SNRK, Homo sapiens, UniProt Q9NRH2)	70%
Serine/threonine-protein kinase WNK4 (WNK4, Homo sapiens, UniProt Q96J92)	94%
Serine/threonine-protein kinase N1 (PKN1, Homo sapiens, UniProt Q16512)	100%
Serine/threonine-protein kinase Nek10 (NEK10, Homo sapiens, UniProt Q6ZWH5)	64%
Cyclin-dependent kinase-like 2 (CDKL2, Homo sapiens, UniProt Q92772)	100%
Tyrosine-protein kinase TXK (TXK, Homo sapiens, UniProt P42681)	98%
Tyrosine-protein kinase JAK1, JH1 (JAK1, Homo sapiens, UniProt P23458)	94%
NT-3 growth factor receptor (NTRK3, Homo sapiens, UniProt Q16288)	85%
SRSF protein kinase 1 (SRPK1, Homo sapiens, UniProt Q96SB4)	95%
Testis-specific serine/threonine-protein kinase 1 (TSSK1B, Homo sapiens, UniProt Q9BXA7)	79%
Cyclin-dependent kinase 15 (CDK15, Homo sapiens, UniProt Q96Q40)	52%
Ribosomal protein S6 kinase alpha-3, C-terminal kinase domain (RPS6KA3, Homo sapiens, UniProt P51812)	67%
Serine/threonine-protein kinase tousled-like 1 (TLK1, Homo sapiens, UniProt Q9UKI8)	86%
Phosphatidylinositol 4-phosphate 3-kinase C2 domain-containing subunit beta (PIK3C2B, Homo sapiens, UniProt O00750)	37%
Dual serine/threonine and tyrosine protein kinase (DSTYK, Homo sapiens, UniProt Q6XUX3)	92%
Serine/threonine-protein kinase 32B (STK32B, Homo sapiens, UniProt Q9NY57)	95%
Tyrosine-protein kinase ABL1, phosphorylated (ABL1, Homo sapiens, UniProt P00519, H396P)	69%
Serine/threonine-protein kinase Chk1 (CHEK1, Homo sapiens, UniProt O14757)	86%

Set 6
Structure (SMILES): Cc1ccc(O)c(C)c1-c1cnc2[nH]c(-c3cnc(N)nc3)cc2c1C#N
target	assay	conditions	scale	remaining binding [%]
LCK	KINOMEscan	1000 nM	relative to: control	58
MKNK2	KINOMEscan	1000 nM	relative to: control	32
BRAF	KINOMEscan	1000 nM	relative to: control	2.6
PKMYT1	KINOMEscan	1000 nM	relative to: control	0
CSNK2A2	KINOMEscan	1000 nM	relative to: control	34
WEE1	KINOMEscan	1000 nM	relative to: control	100
PIK4CB	KINOMEscan	1000 nM	relative to: control	4.2
FRK	KINOMEscan	1000 nM	relative to: control	26
SRC	KINOMEscan	1000 nM	relative to: control	21
CSNK1A1	KINOMEscan	1000 nM	relative to: control	31
Serine/threonine-protein kinase B-raf (BRAF, Homo sapiens, UniProt P15056, V600E)	binding, competition with immobilised ligand	1 µM		4.2

Other studies, line by line
Structure (SMILES)	target	assay	quantity	result
CN(C1COC1)C(C)(C)/C=C(\C#N)C(=O)N1CCC[C@H]1Cn1nc(-c2ccc(Oc3ccccc3)cc2F)c2c(N)ncnc21	Tyrosine-protein kinase BTK (BTK, Homo sapiens, UniProt Q06187)	enzyme activity, inhibitor	kinact/KI	400000 M⁻¹ s⁻¹

For quick reference, copied from above (set 6):
target	assay	conditions	scale	remaining binding [%]
Serine/threonine-protein kinase B-raf (BRAF, Homo sapiens, UniProt P15056, V600E)	binding, competition with immobilised ligand	1 µM		4.2
CSNK1A1	KINOMEscan	1000 nM	relative to: control	31
CSNK2A2	KINOMEscan	1000 nM	relative to: control	34
PIK4CB	KINOMEscan	1000 nM	relative to: control	4.2
PKMYT1	KINOMEscan	1000 nM	relative to: control	0
WEE1	KINOMEscan	1000 nM	relative to: control	100
FRK	KINOMEscan	1000 nM	relative to: control	26
BRAF	KINOMEscan	1000 nM	relative to: control	2.6
